Assay results gathered from unrelated publications.
Each line is one published result; not all experiments were run side by side.
Technique: steady-state kinetics
B1: PRXC1A (Armoracia rusticana, UniProt P00433); chain QLTPTFYDNSCPNVSNIVRDTIVNELRSDPRIAASILRLHFHDCFVNGCDASILLDNTTSFRTEKDAFGNANSARGFPVIDRMKAAVESACPRTVSCADLLTIAAQQSVTLAGGPSWRVPLGRRDSLQAFLDLANANLPAPFFTLPQLKDSFRNVGLNRSSDLVALSGGHTFGKNQCRFIMDRLYNFSNTGLPDPTLNTTYLQTLRGLCPLNGNLSALVDFDLRTPTIFDNKYYVNLEEQKGLIQSDQELFSSPNATDTIPLVRSFANSTQTFFNAFVEAMDRMGNITPLTGTQGQIRLNCRVVNSNS
B2: SLC15A1 (Mus musculus, UniProt Q9JIP7); chain MGMSKSRGCFGYPLSIFFIVVNEFCERFSYYGMRALLVLYFRNFLGWDDNLSTAIYHTFVALCYLTPILGALIADSWLGKFKTIVSLSIVYTIGQAVISVSSINDLTDHDHNGSPDSLPVHVALSMVGLALIALGTGGIKPCVSAFGGDQFEEGQEKQRNRFFSIFYLAINGGSLLSTIITPILRVQQCGIHSQQACYPLAFGVPAALMAVALIVFVLGSGMYKKFQPQGNIMGKVAKCIGFAIKNRFRHRSKAYPKREHWLDWAKEKYDERLISQIKMVTKVMFLYIPLPMFWALFDQQGSRWTLQATTMNGKIGAIEIQPDQMQTVNAILIVIMVPIVDAVVYPLIAKCGFNFTSLKKMTVGMFLASMAFVVAAIVQVEIDKTLPVFPGGNQVQIKVLNIGNNNMTVHFPGNSVTLAQMSQTDTFMTFDIDKLTSINISSSGSPGVTTVAHDFEQGHRHTLLVWNPSQYRVVKDGLNQKPEKGENGIRFVNTLNEMVTIKMSGKVYENVTSHNASGYQFFPSGEKQYTINTTAVAPTCLTDFKSSNLDFGSAYTYVIRRASDGCLEVKEFEDIPPNTVNMALQIPQYFLLTCGEVVFSVTGLEFSYSQAPSNMKSVLQAGWLLTVAVGNIIVLIVAGAGHFPKQWAEYILFASLLLVVCVIFAIMARFYTYINPAEIEAQFDEDEKKKGIGKENPYSSLEPVSQTNM
B3: protein (UniProt A0A4Y6I0S2); chain MTFEEKPMKFDGLDIEGVAFAPSVAALGSAKPLVLGGAGDRGLEINGNYIKFTAIGIYIEDGIIPHLSSKLSGKTVLELCEKDLLFEEVIYAPFEKLVRVVFIAPLTGIQYSEKVLERISVQALYTDIKEEHKQQFLEIFKGESFPPQSSAILSFSKEGLKVAFSKGDDVPAKAVGTIENARFADAVLGTIIWRDGVSPAAKVSLAERVSKYLQLGPSDGLASVPQSK
B4: Paox H64N (Mus musculus, UniProt Q8C0L6); chain MAFPGPRVLVVGSGIAGLGAAQKLCSHRAAPHLRVLEATASAGGRIRSERCFGGVVELGAHWINGPSQDNPVFQLAAEFGLLGEKELSEENQLVDTGGHVALPSMIWSSSGTSVSLELMTEMARLFYGLIERTREFLNESETPMASVGEFLKKEISQQVASWTEDDEDTRKRKLAILNTFFNIECCVSGTHSMDLVALAPFGEYTVLPGLDCILAGGYQGLTDRILASLPKDTVAFDKPVKTIHWNGSFQEAAFPGETFPVLVECEDGARLPAHHVIVTVPLGFLKEHQDTFFEPPLPAKKAEAIKKLGFGTNNKIFLEFEEPFWEPDCQFIQVVWEDTSPLQDTALSLQDTWFKKLIGFLVQPSFESSHVLCGFIAGLESEFMETLSDEEVLLSLTQVLRRVTGNPQLPAAKSVRRSQWHSAPYTRGSYSYVAVGSTGDDLDLMAQPLPEDGTGTQLQVLFAGEATHRTFYSTTHGALLSGWREADRLVSLWDSQVEQSRPRL
B5: TcC (Trypanosoma cruzi, UniProt Q4DGA3); chain MPREYEFAEKILFTEEEIRTRIMEVAKRIADDYKGKGLRPYVNPLVLISVLKGSFMFTADLCRALSDFNVPVRMEFICVSSYGEGVTSSGQVRMLLDTRHSIEGHHVLIVEDIVDTALTLNYLYHMYFTRRPASLKTVVLLDKREGRRVPFSADYVVANIPNAFVIGYGLDYDDTYRELRDIVVLRPEVYAEREAARQKKQRAIGSADTDRDAKREFHSKY
B6: enzyme D235A (Thermococcus kodakarensis, UniProt Q5JID5); chain MLYVEILGNLPEMARDEVKAMLELGGGEIIGQDYLFLKVDAGEKAFPFLDRLGLAHEYGLLLVEADSVEELLQKAGEVEWPIKGAFKVDTETMANCRHDVLDLPRKLGAVIHAQGFRVNLSKPDTVVRVYCGERLYAGIRLRYFDPKDFEKRKAHHRPFFRPISLHPRVSRALVNLTKATREILDPFMGAGGILIEAGLLGLRVYGVDIRPEMVEGAETNLKHYGVRDYTLKLGAATRLEDLFPDKKFEAVATDPPYGTAATLAGRKRDELYRKALRSIYNVLEDGGRLAIAFPTDFNGKAEAEAVGFRTLGRYYQRVHKSLERYFYVFEK
UniProt I0DFJ0, sequence (whole entry, looked up): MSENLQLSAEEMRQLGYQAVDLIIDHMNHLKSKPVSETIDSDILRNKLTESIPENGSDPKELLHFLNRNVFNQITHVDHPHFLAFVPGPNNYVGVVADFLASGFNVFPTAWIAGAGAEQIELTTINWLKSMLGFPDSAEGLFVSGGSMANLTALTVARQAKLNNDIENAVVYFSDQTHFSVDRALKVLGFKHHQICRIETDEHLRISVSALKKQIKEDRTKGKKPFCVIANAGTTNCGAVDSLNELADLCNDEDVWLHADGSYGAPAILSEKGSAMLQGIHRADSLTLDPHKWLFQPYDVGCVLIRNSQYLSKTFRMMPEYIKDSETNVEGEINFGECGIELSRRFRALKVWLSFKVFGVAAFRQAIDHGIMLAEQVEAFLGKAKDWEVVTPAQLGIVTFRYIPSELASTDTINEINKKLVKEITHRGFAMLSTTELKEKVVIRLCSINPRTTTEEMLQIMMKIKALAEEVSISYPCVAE
UniProt P05181, sequence (whole entry, looked up): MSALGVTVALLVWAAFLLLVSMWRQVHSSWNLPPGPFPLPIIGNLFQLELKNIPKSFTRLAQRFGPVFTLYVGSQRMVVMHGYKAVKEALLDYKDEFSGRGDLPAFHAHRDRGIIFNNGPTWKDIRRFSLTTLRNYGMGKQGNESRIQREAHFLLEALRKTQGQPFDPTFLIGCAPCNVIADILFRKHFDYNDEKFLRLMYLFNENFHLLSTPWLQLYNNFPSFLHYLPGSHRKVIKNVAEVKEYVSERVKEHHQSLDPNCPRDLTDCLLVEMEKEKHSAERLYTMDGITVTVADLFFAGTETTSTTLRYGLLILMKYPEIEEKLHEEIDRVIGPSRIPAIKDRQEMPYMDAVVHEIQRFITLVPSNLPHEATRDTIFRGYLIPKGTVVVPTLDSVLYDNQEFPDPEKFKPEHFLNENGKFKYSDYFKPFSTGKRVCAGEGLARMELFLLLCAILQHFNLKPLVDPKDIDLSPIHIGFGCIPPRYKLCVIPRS

Molecule = B1 (PRXC1A); substrate = CCn1c(=NN=c2sc3cc(S(=O)(=O)O)ccc3n2CC)sc2cc(S(=O)(=O)O)ccc21; setting = apparent; Km = 412 µM
Molecule = B2 (SLC15A1); substrate = CC1=C(C(=O)O)N2C(=O)[C@@H](NC(=O)[C@H](N)c3ccc(O)cc3)[C@H]2SC1; pH = pH 6.5; temperature = 31 °C; Km = 2100 µM
Molecule = AphC (Rhodococcus jostii, UniProt Q0S9X1); substrate = CCCc1ccc(O)c(O)c1; pH = pH 8; temperature = 25 °C; setting = apparent; added = O2; Km = 0.22 µM
Molecule = B3 (protein); substrate = O=C(/C=C/c1ccc(O)cc1)c1c(O)cc(O)cc1O; Km = 90.3 µM
Molecule = protein (Candidatus Protochlamydia amoebophila, UniProt Q6MEN5); substrate = O=c1ccn([C@@H]2O[C@H](COP(=O)(O)OP(=O)(O)OP(=O)(O)O)[C@@H](O)[C@H]2O)c(=O)[nH]1; pH = pH 7; temperature = 30 °C; setting = transporter, labelled substrate, apparent, not purified; Km = 1320 µM
Molecule = aromatic amino acid decarboxylase (Bacillus atrophaeus, UniProt I0DFJ0); substrate = N[C@@H](Cc1c[nH]c2ccccc12)C(=O)O; pH = pH 7; temperature = 37 °C; setting = not purified; added = PLP 40 µM; Km = 900 µM
Molecule = CYP2E1 (Homo sapiens, UniProt P05181); substrate = C=Cc1ccc(F)cc1; pH = pH 7.4; temperature = 37 °C; Km = 54.2 µM
Molecule = B4 (Paox H64N); substrate = CC(=O)NCCCNCCCCNCCCN; pH = pH 10; temperature = 30 °C; Km = 240 µM
Molecule = Ptb (Listeria monocytogenes, UniProt Q8Y7B7); substrate = CC(=O)SCCNC(=O)CCNC(=O)[C@H](O)C(C)(C)COP(=O)(O)OP(=O)(O)OC[C@H]1O[C@@H](n2cnc3c(N)ncnc32)[C@H](O)[C@@H]1OP(=O)(O)O; pH = pH 7.5; temperature = 25 °C; setting = apparent, poor fit; Km = 992 µM
Molecule = B5 (TcC); substrate = O=P(O)(O)OC[C@H]1O[C@H](OP(=O)(O)OP(=O)(O)O)[C@H](O)[C@@H]1O; pH = pH 8.3; temperature = 37 °C; setting = IMP biosynthesis, apparent; added = Hx 100 µM; Km = 39 µM
Molecule = B6 (enzyme D235A); substrate = C[S+](CC[C@H](N)C(=O)O)C[C@H]1O[C@@H](n2cnc3c(N)ncnc32)[C@H](O)[C@@H]1O; pH = pH 7.5; temperature = 50 °C; setting = apparent; Km = 45 µM
